Published values from different studies.
Lines come from different studies, so protocols differ. Numbers after ± are the reported error.
PYL8: PYL8 (Arabidopsis thaliana, UniProt Q9FGM1)
OMA1: Metalloendopeptidase OMA1, mitochondrial (OMA1, Homo sapiens, UniProt Q96E52)
CGAS catalytic domain; with DNA: Cyclic GMP-AMP synthase, catalytic domain; with DNA (CGAS, Homo sapiens, UniProt Q8N884)

With `CCCCC[C@H](O)/C=C/[C@H]1[C@H](O)CC(=O)[C@@H]1C/C=C\CCCC(=O)O` the EC50 was 31.6 nM (PTGER1 (Homo sapiens, UniProt P34995, Y99A); IP1 accumulation, agonist; AD293; EP1 Y99A mutant).
For `COc1cc(F)c([C@@H]2CNC(=O)[C@H]2NC(=O)Nc2ccccc2)c(F)c1`, the EC50 was 133 nM (Formyl peptide receptor 2 (Mus musculus, UniProt O88536); β-arrestin1 recruitment, agonist, BRET; HEK293 expressing mouse FPR2).
With `O=C(O)CCc1ccc2c(c1)OCO2` the Kd was over 1000 µM (Ubiquitin carboxyl-terminal hydrolase 49, ZnF-UBD domain (USP49, Homo sapiens, UniProt Q70CQ1)).
With `O=C(O)c1cccnc1Nc1cccc(C(F)(F)F)c1` the EC50 was 246000 nM (BK channel alpha subunit (Cavia porcellus, UniProt A0A286XP95); delayed rectifier K+ current, activator; dispersed vascular smooth muscle cells, guinea pig, MA arteriole; at +40 mV).
With `CCn1c(-c2nc3ccc(C(=O)N4CCCC(N)C4)cc3n2C)cc2ccccc21` (centres unmarked) the EC50 was over 100000 nM (CNR2 (Homo sapiens, UniProt P34972); agonist, yeast FDGlu reporter; yeast).
The EC50 of `O=C(Cc1cc(C2CC2)c(-n2cc(CNC(=O)c3csc(Br)c3)nn2)c(C2CC2)c1)NC1(C(=O)O)CCCCC1` is reported as 287 ± 33 nM (PYL8; phosphatase activity recovery, antagonist; together with: HAB1, ABA 5000 nM).
For `CNC(=O)c1cc(Oc2ccc(NC(=O)Nc3ccc(Cl)c(C(F)(F)F)c3)cc2)ccn1`, the EC50 was 4800 nM (OMA1; luciferase reporter activation, Luke-S1 protease reporter; human cells).
The EC50 of `CCOCc1nc(O)c(-c2nnc(Cc3ccc(Cl)cn3)o2)c(O)c1-c1c(OC)cccc1OC` is reported as 0.03 ± 0.01 nM (Apelin receptor (Canis lupus familiaris, UniProt A0A8C0JGC4); cAMP inhibition, agonist; HEK293; dog receptor).
For `O=C(Cc1cc(C2CC2)c(-n2cc(CNC(=O)c3ccc(Br)o3)nn2)c(C2CC2)c1)NC1(C(=O)O)CCCCC1`, the EC50 was 596 ± 114 nM (PYL8; phosphatase activity recovery, antagonist; together with: HAB1, ABA 5000 nM).
With `Cc1nn(-c2nc3c(F)cc(F)cc3s2)c(O)c1C(c1ccccc1C(F)(F)F)c1c(C)nn(-c2nc3c(F)cc(F)cc3s2)c1O` the EC50 was 5780 nM (CGAS catalytic domain; with DNA; cGAS phase separation, inhibitor).
With `NS(=O)(=O)c1cccc(Cc2c(-c3ccc(F)c(F)c3)[nH]n(-c3nc(C(=O)O)cs3)c2=O)c1` the EC50 was over 50000 nM (LDHA (Homo sapiens, UniProt P00338); CETSA thermal stabilisation; HEK293; 3.5 min, 71 °C).
For `Cc1ccc(C(=O)NCc2cn(-c3c(C4CC4)cc(CC(=O)NC4(C(=O)O)CCCCC4)cc3C3CC3)nn2)o1`, the EC50 was 765 ± 233 nM (PYL8; phosphatase activity recovery, antagonist; together with: HAB1, ABA 5000 nM).
With `Cc1nn(-c2nc3ccccc3s2)c(O)c1C(c1ccccc1C(=O)O)c1c(C)nn(-c2nc3ccccc3s2)c1O` the EC50 was 277 nM (CGAS catalytic domain; with DNA; cGAS-DNA phase separation, inhibitor).
With `Cc1cccc(C(=O)NCc2cn(-c3c(C4CC4)cc(CC(=O)NC4(C(=O)O)CCCCC4)cc3C3CC3)nn2)n1` the EC50 was 420 ± 118 nM (PYL8; phosphatase activity recovery, antagonist; together with: HAB1, ABA 5000 nM).
The EC50 of `O=C(Nc1ccn(Cc2ccc(O)cc2C(F)(F)F)n1)c1c(F)cccc1F` is reported as over 10000 nM (TRPC6 (Homo sapiens, UniProt Q9Y210); ion channel activity, agonist; cells overexpressing TRPC6; human receptor).
With `O=C(Cc1cc(C2CC2)c(-n2cc(CNC(=O)c3cnc(Br)s3)nn2)c(C2CC2)c1)NC1(C(=O)O)CCCCC1` the EC50 was 573 ± 131 nM (PYL8; phosphatase activity recovery, antagonist; together with: HAB1, ABA 5000 nM).
With `C[C@H](CCC(C)(C)O)[C@H]1CC[C@H]2[C@@H]3CC=C4C[C@@](C)(O)CC[C@]4(C)[C@H]3CC[C@]12C` the EC50 was 112 nM (Glutamate NMDA receptor; GRIN1/GRIN2B (GRIN1/GRIN2B, Homo sapiens, UniProt Q05586+Q13224); ion current, positive modulator, automated patch clamp; HEK293 (stable line); together with: glutamate 0.8 µM and glycine).
`CCn1c(-c2nc3cc(C(=O)N4CCC[C@@H](N)C4)cc(OC)c3n2C)cc2cccnc21` has an EC50 of over 50100 nM (CHRNA1 (Homo sapiens, UniProt P02708); agonist, intracellular Ca2+ fluorescence).
For `COc1cc(Nc2ncc3c(n2)-c2ccc(Cl)cc2C(c2c(F)cccc2OC)=NC3)ccc1C(=O)O`, the EC50 was 3490 nM (IRAK3 (Homo sapiens, UniProt Q9Y616); binding, kinobead competition; MV4-11 cell lysate).
The EC50 of `O=C(COP(=O)(O)O)[C@@H](O)[C@H](O)[C@H](O)COP(=O)(O)O` is reported as 246 ± 85 nM (Pyruvate kinase PKM (PKM, Homo sapiens, UniProt P14618); enzyme activity, activator; with AIM).
The EC50 of `CCCCC[C@H](O)/C=C/[C@H]1C(=O)C[C@H](O)[C@@H]1C/C=C\CCCC(=O)O` is reported as 4.9 nM (PTGDR2 (Homo sapiens, UniProt Q9Y5Y4); agonist, cell-based).
`Cc1cc(Nc2ncc(Cl)c(Nc3ccccc3S(=O)(=O)C(C)C)n2)c(OC(C)C)cc1C1CCNCC1` has an EC50 of 10600 nM (OMA1; luciferase reporter activation, Luke-S1 protease reporter; human cells).
With `O=C(Cc1cc(C2CC2)c(-n2cc(CNC(=O)c3ccc4ccccc4n3)nn2)c(C2CC2)c1)NC1(C(=O)O)CCCCC1` the EC50 was 202 ± 46 nM (PYL8; phosphatase activity recovery, antagonist; together with: HAB1, ABA 5000 nM).
With `CC(=O)c1cc([N+](=O)[O-])c(Sc2cccc(Cl)c2Cl)s1` the EC50 was over 50000 nM (USP20 (Homo sapiens, UniProt Q9Y2K6); enzyme activity, inhibitor).
`O=C(Cc1cc(C2CC2)c(-n2cc(CNC(=O)c3cnc4ccccc4n3)nn2)c(C2CC2)c1)NC1(C(=O)O)CCCCC1` gave an EC50 of 172 ± 46 nM (PYL8; phosphatase activity recovery, antagonist; together with: HAB1, ABA 5000 nM).
`O=C(O)Cc1nc2ccccc2o1` has a Kd of 403 µM (Ubiquitin carboxyl-terminal hydrolase 20, ZnF-UBD domain (USP20, Homo sapiens, UniProt Q9Y2K6)).

Excerpt of the above:
With `Cc1nn(-c2nc3c(F)cc(F)cc3s2)c(O)c1C(c1ccccc1C(F)(F)F)c1c(C)nn(-c2nc3c(F)cc(F)cc3s2)c1O` the EC50 was 5780 nM (CGAS catalytic domain; with DNA; cGAS phase separation, inhibitor).
With `NS(=O)(=O)c1cccc(Cc2c(-c3ccc(F)c(F)c3)[nH]n(-c3nc(C(=O)O)cs3)c2=O)c1` the EC50 was over 50000 nM (LDHA (Homo sapiens, UniProt P00338); CETSA thermal stabilisation; HEK293; 3.5 min, 71 °C).
